# Results collected from several papers.
# Protocols differ between the studies behind these lines. ± gives the spread as reported.
SMILES,target or system,test,system,setting,scale,quantity,value
c1ccc(-c2n[nH]cc2-c2ccnc3ccccc23)nc1,orf19.6492 Candida albicans,"kinase binding, MIB/MS competition",Candida albicans lysate,10 µM,baseline: DMSO,log2 fold change,-0.13
CN1CCCNC(=O)c2cccc(c2)C(=O)NCCCN(C)CCCNc2cccc3c2C(=O)c2cccc(c2C3=O)NCCC1,SAS,"RNA-Seq, item: HUS1 mRNA",,"1 µM, 6 h",baseline: untreated cells,log2 fold change,-0.858
C=CC(=O)N1[C@@H](c2ccc3c(c2)OCO3)c2[nH]c3ccccc3c2C[C@H]1C(=O)N1CCN(C)CC1,human cyclin E1 N112C-3xFLAG:CDK2,"co-IP with TMT proteomics, item: ATAD3A",,"concentration not given, Q9NVI7",baseline: wild type DMSO,relative co-enrichment,123%
C=CC(=O)Nc1cccc(Cn2ncc3cnc(Nc4cnn(CCOC)c4)nc32)c1,PAK4 human,"binding, KINOMEscan",,100 nM,lower = stronger binding,percent of control,100%
Cc1ccc(N(C)C(=O)[C@H](Cc2ccccc2)NC(=O)Cc2c[nH]c3ccc(O)cc23)cc1,human immunodeficiency virus 1,viral replication,NL4-3 with subtype B gag/pol,,,EC50,46 ± 10 nM
c1ccc(CN2CCOCCOCCN(CCCCCCCCCCCCN3CCOCCOCCN(CCCCCCCCCCCCN4CCOCCOCCN(Cc5ccccc5)CCOCCOCC4)CCOCCOCC3)CCOCCOCC2)cc1,Klebsiella pneumoniae,"tetracycline MIC, checkerboard",ATCC BAA-2146,"quarter MIC, with: tetracycline",baseline: MIC alone over combination,fold enhancement,3 fold
COC1CN([C@H]2CC[C@H]([C@@]3(C)Oc4c(Cl)cc(C(=O)NCc5c(SC)cc(C)[nH]c5=O)c(C)c4O3)CC2)C1,,"RNA-seq, item: TRIM2 mouse homolog","mouse, HT-1376 xenograft, whole blood",dose not given,baseline: vehicle,log2 fold change,1.01
Cc1ncsc1-c1ccc(C(C)NC(=O)C2CC(O)CN2C(=O)C(NC(=O)CCCCCCCCCCN2CCCC(Nc3ncc(Cl)c(Nc4ccccc4S(=O)(=O)C(C)C)n3)C2)C(C)(C)C)cc1 (stereo not shown),22Rv1,"RNA-seq, item: NUDT18 mRNA",,concentration not given,baseline: DMSO,log2 fold change,-1.87
Cn1ncc2cc(-c3cncc(Cl)c3N3CCC4(CCNC4=O)CC3)ccc21,LS174T,"gene expression, microarray, item: KLF6 mRNA",,"concentration not given, 24 h",baseline: untreated cells,log2 fold change,1.61
Fc1ccc(Nc2nc(NC3CCCCC3)c3ccccc3n2)cc1F,β2AR/β1AR ECL3 chimera,"β-arrestin2 recruitment, antagonist, BRET",,with: isoprenaline 1 µM,,pIC50,5.8
Nc1ncc(-c2cc(-c3cnn(CC(F)(F)F)c3)ncc2F)nc1C(=O)NC1CNCC(F)C1 (stereo not shown),CAMKK2,KINOMEscan,,1 µM,baseline: DMSO control,remaining binding,89%
CC(C)(C)NCC(SS(=O)(=O)O)c1ccccc1 (stereo not shown),Schistosoma mansoni,perfusion day 52,infected Swiss Webster mice,"600 mg/kg single dose, 1248 h, dosed day 7 post-infection",baseline: vehicle control,spleen weight decrease,23%
CCN(CC)CC(=O)Nc1cccc(-n2cc(-c3ccc4ccc(-c5cn(-c6cccc(NC(=O)CN(CC)CC)c6)nn5)cc4c3)nn2)c1,RCC4,"PCR angiogenesis array, item: TGFB2",,"5 x IC50, 6 h, normoxia",baseline: untreated,fold regulation,-1.27 fold
CNS(=O)(=O)Nc1nccc(Cc2c(C)c3ccc(Oc4ncccc4F)cc3oc2=O)c1F,U2932,cell viability,,7 days,,IC50,20.4 nM
N=C(N)NCCC[C@@H]1NC(=O)[C@H](CCCNC(=N)N)NC(=O)[C@@H](CCCNC(=N)N)NC(=O)[C@@H](CCCNC(=N)N)NC(=O)[C@@H](C(c2ccccc2)c2ccccc2)NC(=O)[C@H](Cc2c[nH]c3ccccc23)NC(=O)[C@@H](C(c2ccccc2)c2ccccc2)NC1=O,Candida albicans,,ATCC 60193,"1 x MIC, 24 h, preformed biofilm",,biofilm mass reduction,46%
C=C(NC(=O)c1csc(-c2nc3c(cc2O)-c2nc(cs2)C(=O)NC(C(C)O)C(=O)NC(=C(C)OC)c2nc(cs2)C(=O)NC2c4nc(cs4)C(=O)NC(COC(=O)c4c5c6c(cccc6n4O)COC(=O)C(OC4CC(C)(O)C(N(C)C)C(C)O4)C2OC5)c2nc-3cs2)n1)C(N)=O (stereo not shown),Streptococcus pneumoniae,,"-4, immunocompromised mice, lung infection","16 mg/kg/day, twice daily, 24 h post-dose",,lung bacterial load,6.52 log CFU/g

# Excerpt of the above:
SMILES,target or system,test,system,setting,scale,quantity,value
CC(C)(C)NCC(SS(=O)(=O)O)c1ccccc1 (stereo not shown),Schistosoma mansoni,perfusion day 52,infected Swiss Webster mice,"600 mg/kg single dose, 1248 h, dosed day 7 post-infection",baseline: vehicle control,spleen weight decrease,23%
